Measured values collected from several papers.
Each numbered part is a random draw from the data of one study; scales do not carry over between parts. Changes are numbered by the printed parent chain.

Set 1 — technique: protein binding microarray; form: double-stranded DNA, one strand shown; medium: in vitro; concentration: not given; relative to: not given; reading: higher = stronger binding
Target: Histone acetyltransferase KAT6A, both winged helices, GST fusion (KAT6A, Homo sapiens, UniProt Q92794, residues 1-181)
Setting: 8-mer, flanks averaged, mean of 2 arrays, mostly near background
Residues (chain): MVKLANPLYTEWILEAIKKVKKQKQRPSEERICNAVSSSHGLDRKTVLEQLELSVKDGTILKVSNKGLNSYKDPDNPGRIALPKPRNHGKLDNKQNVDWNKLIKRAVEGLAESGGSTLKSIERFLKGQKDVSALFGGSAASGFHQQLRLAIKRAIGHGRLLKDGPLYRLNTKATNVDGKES
Oligonucleotide	E-score
CATGTTCG	0.0239
CCCGATCG	0.229
AACCTCTG	-0.00128
ACAGCCGA	0.0975
CAACTCCA	-0.147
CACGCGGG	0.265
AGTGTGAC	-0.23
GACCGTCC	0.168

Set 2 — technique: RNA Bind-n-Seq; form: RNA; medium: in vitro; concentration: not given; relative to: input RNA pool; reading: higher = stronger binding
Target: RING finger protein unkempt homolog, zinc fingers 1-6, GST-SBP tag (UNK, Homo sapiens, UniProt Q9C0B0, residues 30-357)
Sequence of UniProt Q9C0B0 (30-357, looked up): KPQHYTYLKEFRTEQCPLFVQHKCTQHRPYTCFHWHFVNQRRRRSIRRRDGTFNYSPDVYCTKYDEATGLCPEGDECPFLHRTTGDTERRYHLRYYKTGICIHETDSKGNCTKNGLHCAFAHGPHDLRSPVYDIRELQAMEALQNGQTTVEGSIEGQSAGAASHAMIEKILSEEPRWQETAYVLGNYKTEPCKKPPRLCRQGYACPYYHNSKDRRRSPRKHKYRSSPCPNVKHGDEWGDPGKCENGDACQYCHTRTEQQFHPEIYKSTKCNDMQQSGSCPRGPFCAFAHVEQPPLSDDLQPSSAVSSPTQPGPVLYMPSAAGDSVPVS
Setting: RNA with constant flanks, human-mouse chimeric sites, ends assumed
Oligonucleotide	bound/input enrichment [ratio]
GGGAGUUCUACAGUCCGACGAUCCAGUCCCCGUGUCCCAGUGCAGGACGAUGUGAACAAAUCGAAGACAUGGACCCUCUAUUGUAGUUCUUGAUUCUCGAAAUGUGCUAUUAUUGUUUGUAAAAAAGGAAUUUUUUUUAAAGACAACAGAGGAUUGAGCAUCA	0.337
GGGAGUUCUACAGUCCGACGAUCUUCAAAGAAAAGGGCAGCUGUGUCAUUACUUGGGAGACUCUGGGGGAGGGAAAUUCUGUUCUUUUGUUUUUAGUUUUCCCAAAUGAAGCCAAAGUGUGUGUUGAAGAACUGAGAAAAAAUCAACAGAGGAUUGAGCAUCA	0.328
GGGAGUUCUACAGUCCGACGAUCCUCAGAGACGUGGCAUAUCAAUAUGUGAAAAAGGGGGCUCGUAUAUUUGUGGAAGGGAAAGUGGACUAUGGCGAGUACAUGGAUAAAAACAAUGUGAGGCGGCAAGCAACAACAAUCAUACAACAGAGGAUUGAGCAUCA	0.383
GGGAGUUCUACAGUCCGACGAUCUACUCAACUUUCUUGCCACAUUUUGAAUUCCAAGACAUUAUUCCUCCAGAUGACUUCCUAACUAGUGAUGAAGAGCAAGAUUUGGUUUUAUUUGGAACUAUGAGAGGACAAGUUGUUGGACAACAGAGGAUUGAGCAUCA	0.34
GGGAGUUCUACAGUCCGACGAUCGAAACAUUUAAAUUUAAAGAAGCUGUUGUUCUAGGAAGCACGGACUUUCUAGAAGAUGAUAUAGAAAAAAUUGUAGAAGAACUGGGGAAAGAGUAUAAGGGCAACGCCUACCAUCUGAUGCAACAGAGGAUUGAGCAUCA	1.56
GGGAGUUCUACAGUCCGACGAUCAAUUUCCUGUCAUACUUUGUAGCAAGACACAUCAGACUUACAGAGCACCUGGCCACAUUCUAGGUUUGUGUUAUUUCUCAGCUAUGGAUAUGAUCAAAUGAGAACACUGGCAGCCAGAUGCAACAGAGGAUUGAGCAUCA	0.293
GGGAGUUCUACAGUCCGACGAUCCUCUUUGAAUCUUUCAAGAGUUUUGAAGGUCUCUUUUAUUUUCUGGGGUCCAUUGUUAACUUUAGUCAGGACCCAGAUGUGCACUUUAAAUAUAUUCAGGCGGCUUGCAAGACUGGGCAACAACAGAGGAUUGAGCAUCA	0.665
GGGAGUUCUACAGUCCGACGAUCGCGGCAGAAUCAUGGAGGACAUAAUGCACUUGCCCAGAGCGCGCGUCAACGCCAGCAUGUUACCACAGUAUAUCGACCGGCCCGUGUGCUUCGUAGGGAAGCUGGAAAAGAUUCAUCCCACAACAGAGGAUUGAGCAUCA	0.152

Set 3 — technique: aptamer microarray, sandwich; form: DNA with 2'F-ANA; medium: in vitro; concentration: 200 nM; with: Cy3 exosite-II aptamer, 400 nM; reading: higher = stronger binding; oligonucleotide: GGTTGGTGTGGTTGG
Target: Prothrombin, mature alpha-thrombin (F2, Homo sapiens, UniProt P00734)
Setting: whole 15-mer aptamer, many near background
Modification	mean fluorescence intensity [a.u.]
2'F-ANA at 4 5 8 9 12 13 15	78
2'F-ANA at 1 2 8 9 11 13 14	59.3
2'F-ANA at 2 3 4 5 7 10 11 13 14 15	55.2
2'F-ANA at 4 6 7 8 13 14 15	93.6
2'F-ANA at 5 7 9 11 13	54.1
2'F-ANA at 2 3 5 6 9 12 13	144
2'F-ANA at 1 6 9 10 12 13 14	46.6
2'F-ANA at 3 5 6 9 10 11 13 15	55.4

Other studies, line by line
Parent: PafA, mature enzyme, eGFP fusion (Elizabethkingia meningoseptica, UniProt Q9KJX5); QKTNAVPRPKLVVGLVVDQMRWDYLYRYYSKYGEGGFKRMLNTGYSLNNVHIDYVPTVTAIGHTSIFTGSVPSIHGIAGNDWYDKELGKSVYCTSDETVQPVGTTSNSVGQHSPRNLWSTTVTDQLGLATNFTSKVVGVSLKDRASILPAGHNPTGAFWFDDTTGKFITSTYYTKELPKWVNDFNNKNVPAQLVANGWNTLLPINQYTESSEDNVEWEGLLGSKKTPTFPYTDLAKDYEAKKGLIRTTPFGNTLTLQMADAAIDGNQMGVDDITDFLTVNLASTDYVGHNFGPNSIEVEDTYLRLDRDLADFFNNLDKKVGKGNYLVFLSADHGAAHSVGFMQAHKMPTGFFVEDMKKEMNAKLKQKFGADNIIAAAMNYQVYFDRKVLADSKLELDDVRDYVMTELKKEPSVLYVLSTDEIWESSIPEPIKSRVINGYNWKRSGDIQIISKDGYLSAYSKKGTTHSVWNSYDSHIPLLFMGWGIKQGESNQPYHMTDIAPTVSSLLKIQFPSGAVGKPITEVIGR
Substitution	target	test	test system	setting	how to read	endpoint	value
Y207V	vanadate, free oxyanion	microfluidic competitive inhibition	in vitro, cell-free expressed	not given, derived from inhibition constants, unchanged parent 676 nM	lower = stronger binding	oxyanion analog dissociation constant	746 nM
